# Assay results gathered from unrelated publications.
# Compare with care: the assays were run in different laboratories. ± gives the spread as reported.
SMILES,organism,test,test system,conditions,EC50
Nc1ccn(C[C@@H](CO)OCP(=O)(O)OCCCS(=O)(=O)CCCCCCCCCCCCCC2CCC2)c(=O)n1,vaccinia virus,viral replication,"HFF, Copenhagen",,8.95 µM
O=S(=O)(O)c1cccc(-c2c3nc(c(-c4cccc(S(=O)(=O)O)c4Cl)c4ccc([nH]4)c(-c4cccc(S(=O)(=O)O)c4Cl)c4nc(c(-c5cccc(S(=O)(=O)O)c5Cl)c5ccc2[nH]5)C=C4)C=C3)c1Cl,vaccinia virus,viral replication,"CV-1, Western Reserve",,1 ± 0.2 µg/mL
O=C1/C(=N\NC(=S)NN=Cc2cccs2)c2ccccc2N1Cc1ccccc1,vaccinia virus,viral cytopathogenicity,HEL,,> 20 µM
O=S(=O)(O)c1c2ccccc2c(-c2c3nc(c(-c4c5ccccc5c(S(=O)(=O)O)c5ccccc45)c4ccc([nH]4)c(-c4c5ccccc5c(S(=O)(=O)O)c5ccccc45)c4nc(c(-c5c6ccccc6c(S(=O)(=O)O)c6ccccc56)c5ccc2[nH]5)C=C4)C=C3)c2ccccc12,vaccinia virus,extracellular enveloped virus,"CV-1, IHD-J",,0.2 ± 0.1 µg/mL
CCOC(=O)C1(Cc2ccccc2)Oc2cc(F)ccc2N(Cc2ccccc2)C1=O (centres unmarked),Xanthomonas oryzae pv. oryzicola,bacterial growth,,,> 128 µg/mL
CCC(NC(=O)NNS(=O)(=O)c1ccc(C)cc1)(C(F)(F)F)C(F)(F)F,Mammarenavirus lassaense,viral replication,Vero,,> 20 µM
Nc1nc(Nc2ccc(Cl)cc2)nn1S(=O)(=O)c1ccc2ccccc2c1,Japanese encephalitis virus,viral replication,"Vero 76, SA-14",,> 7.9 µM
CC(=O)OC1(C)CC(C=C(C)CCC=C(C)C)OC2(C=C(CO)C3CC(=O)C(C)=CC3O2)C1 (centres unmarked),SARS-CoV-2 Omicron BA.1,"viral replication, dsRNA staining",Calu-3,,0.4 µM
O=C[C@H](C[C@@H]1CCNC1=O)NC(=O)[C@H](Cc1ccccc1)NC(=O)/C=C/c1cccc(Br)c1,Middle East respiratory syndrome-related coronavirus,viral replication,Huh-7,48 h,1.4 µM
Cc1ccc(NS(=O)(=O)c2c(C(=O)N3CCCCCC3)c(C)n(C)c2C)c(Cl)c1,Vaccinia virus,viral replication,,,0.15 to 1.5 µM
CC(=O)c1ccc2c(c1)N(CCCN(C)C)c1ccccc1S2,SARS coronavirus,,"Vero 76, Urbani",,21 ± 11 µM
CC(C)Oc1ccc(-n2cnc3cc(/C=C\c4ccc(C(C)(C)O)cc4)ccc32)cc1,Mammarenavirus lassaense,pseudovirus entry,,glycoprotein pseudotyped particles,0.00094 ± 0.00096 µM
CC(NC(=O)NNS(=O)(=O)c1ccc(OC(F)F)cc1)(C(F)(F)F)C(F)(F)F,Mammarenavirus guanaritoense,viral replication,Vero,,1 µM
COc1cc(-c2oc3cc(O[C@@H]4O[C@@H](C)[C@H](O)[C@@H](O)[C@H]4O)cc(O)c3c(=O)c2O[C@@H]2O[C@H](COC(=O)c3cc(O)c(O)c(O)c3)[C@@H](O)[C@H](O)[C@H]2OC(=O)c2cc(O)c(O)c(O)c2)ccc1O,Influenza A virus,viral replication,"MDCK, A/Tern/South Africa/1/61(H5N3)",,161.6 ± 0.57 µM
COc1cccc(NC(=S)NNC(=O)c2ccccn2)n1,MERS-CoV,viral replication,Vero,24 h,0.73 µM
CC(C)c1ccc2c(c1)CC[C@H]1[C@](C)(C(=O)OCC#CCN3CCCC3)CCC[C@]21C,SARS-CoV-2 pseudovirus,viral replication,,,11.1 µM
Nc1nc(Nc2ccc(Cl)c(Cl)c2)nn1S(=O)(=O)c1ccc2ccccc2c1,Powassan virus,viral replication,"BHK-21, LB",,5 µM
C#CCN1C(=O)C(CC#C)(C(=O)OCC)Oc2ccccc21 (centres unmarked),Xanthomonas oryzae pv. oryzicola,bacterial growth,,,> 128 µg/mL
CO/C1=C\C(C)=C\[C@@H](C)[C@@H](O)[C@@H](C)C/C(C)=C/C=C/[C@H](OC)[C@@H]([C@@H](C)[C@@H](O)[C@H](C)C(=O)/C=C/[C@H](C)[C@H](O)C(C)C)OC1=O,SARS-CoV-2 Omicron BA.2,"viral replication, dsRNA staining",Calu-3,,0.022 µM
CCC[C@H](NC(=O)[C@H](CC(C)C)NC(=O)OCc1ccccc1)C(=O)C(=O)NCc1ccccn1,SARS coronavirus,viral replication,Vero 76,96 h,1.06 ± 0.14 µM
COc1cc(-c2oc3cc(O)cc(O)c3c(=O)c2O[C@@H]2O[C@H](CO)[C@@H](O)[C@H](O)[C@H]2OC(=O)c2cc(O)c(O)c(O)c2)ccc1O,Influenza A virus,viral replication,"MDCK, A/Tern/South Africa/1/61(H5N3)",,2.5 ± 0.019 µM
CC(C)OC(=O)[C@H](Cc1ccccc1)NP(=O)(COCCn1cnc2c(=O)[nH]c(=O)[nH]c21)N[C@@H](Cc1ccccc1)C(=O)OC(C)C,Vaccinia virus,,HEL,,> 100 µM
CCOC(=O)[C@@H](C)NP(=O)(CO[C@H](CF)Cn1cnc(N)nc1=O)N[C@H](C)C(=O)OCC,Vaccinia virus,viral replication,HEL,,> 100 µM
C=CCN1C(=O)C(CC=C)(C(=O)OCC)Oc2cc(F)ccc21 (centres unmarked),Xanthomonas oryzae,microbial growth,,,> 128 µg/mL
COc1cc(-c2oc3cc(O[C@@H]4O[C@H](CO)[C@@H](O)[C@H](O)[C@H]4O)cc(O)c3c(=O)c2O[C@@H]2O[C@H](CO[C@@H]3O[C@@H](C)[C@H](OC(C)=O)[C@@H](O)[C@H]3OC(C)=O)[C@@H](O)[C@H](O)[C@H]2O)ccc1O,Influenza A virus,viral replication,"MDCK, A/Tern/South Africa/1/61(H5N3)",,218.4 ± 0.79 µM
Cc1cn(C2CC(N(C)C)C(CO)O2)c(=O)[nH]c1=O (centres unmarked),vaccinia virus,viral replication,HEL,,> 0.37 µM
COc1cc(-c2oc3cc(O[C@@H]4O[C@@H](C)[C@H](O)[C@@H](O)[C@H]4O)cc(O)c3c(=O)c2O[C@@H]2O[C@H](CO)[C@@H](O)[C@H](O)[C@H]2OC(=O)c2cc(O)c(O)c(O)c2)ccc1O,Influenza A virus,viral replication,"MDCK, A/Tern/South Africa/1/61(H5N3)",,166.2 ± 0.76 µM
Cc1nc(N2CCC(N(C)c3cc(C(=O)NCCN4CCCC4)cnn3)CC2)nc(C)c1CC(C)C,SARS coronavirus,viral replication,,,0.64 µM
Oc1cccc(O)c1-c1c2nc(c(-c3c(O)cccc3O)c3ccc([nH]3)c(-c3c(O)cccc3O)c3nc(c(-c4c(O)cccc4O)c4ccc1[nH]4)C=C3)C=C2,vaccinia virus,viral replication,"BSC-40, Western Reserve",,0.19 ± 0.03 µg/mL
C1CCCCCC2(CCCCC1)OOCCCOO2,Japanese encephalitis virus,"replicon RNA replication, firefly luciferase reporter",BHK (JEV replicon),72 h,14 µM
CCN1CCC(CN2c3ccccc3Sc3ccccc32)C1 (centres unmarked),SARS coronavirus,,"Vero 76, Urbani",,13.1 ± 8.8 µM
O=S(=O)(O)c1cccc(-c2c3nc(c(-c4cccc(S(=O)(=O)O)c4F)c4ccc([nH]4)c(-c4cccc(S(=O)(=O)O)c4F)c4nc(c(-c5cccc(S(=O)(=O)O)c5F)c5ccc2[nH]5)C=C4)C=C3)c1F,vaccinia virus,viral replication,"CV-1, Western Reserve",,1.3 ± 0.3 µg/mL

# Excerpt of the above:
SMILES,organism,test,test system,conditions,EC50
COc1cc(-c2oc3cc(O[C@@H]4O[C@@H](C)[C@H](O)[C@@H](O)[C@H]4O)cc(O)c3c(=O)c2O[C@@H]2O[C@H](CO)[C@@H](O)[C@H](O)[C@H]2OC(=O)c2cc(O)c(O)c(O)c2)ccc1O,Influenza A virus,viral replication,"MDCK, A/Tern/South Africa/1/61(H5N3)",,166.2 ± 0.76 µM
CCC(NC(=O)NNS(=O)(=O)c1ccc(C)cc1)(C(F)(F)F)C(F)(F)F,Mammarenavirus lassaense,viral replication,Vero,,> 20 µM
CCOC(=O)[C@@H](C)NP(=O)(CO[C@H](CF)Cn1cnc(N)nc1=O)N[C@H](C)C(=O)OCC,Vaccinia virus,viral replication,HEL,,> 100 µM
C1CCCCCC2(CCCCC1)OOCCCOO2,Japanese encephalitis virus,"replicon RNA replication, firefly luciferase reporter",BHK (JEV replicon),72 h,14 µM
CC(NC(=O)NNS(=O)(=O)c1ccc(OC(F)F)cc1)(C(F)(F)F)C(F)(F)F,Mammarenavirus guanaritoense,viral replication,Vero,,1 µM
